Published values of several laboratories.
A part holds a random share of what one study measured.
Sequence of UniProt O75676 (whole entry, looked up): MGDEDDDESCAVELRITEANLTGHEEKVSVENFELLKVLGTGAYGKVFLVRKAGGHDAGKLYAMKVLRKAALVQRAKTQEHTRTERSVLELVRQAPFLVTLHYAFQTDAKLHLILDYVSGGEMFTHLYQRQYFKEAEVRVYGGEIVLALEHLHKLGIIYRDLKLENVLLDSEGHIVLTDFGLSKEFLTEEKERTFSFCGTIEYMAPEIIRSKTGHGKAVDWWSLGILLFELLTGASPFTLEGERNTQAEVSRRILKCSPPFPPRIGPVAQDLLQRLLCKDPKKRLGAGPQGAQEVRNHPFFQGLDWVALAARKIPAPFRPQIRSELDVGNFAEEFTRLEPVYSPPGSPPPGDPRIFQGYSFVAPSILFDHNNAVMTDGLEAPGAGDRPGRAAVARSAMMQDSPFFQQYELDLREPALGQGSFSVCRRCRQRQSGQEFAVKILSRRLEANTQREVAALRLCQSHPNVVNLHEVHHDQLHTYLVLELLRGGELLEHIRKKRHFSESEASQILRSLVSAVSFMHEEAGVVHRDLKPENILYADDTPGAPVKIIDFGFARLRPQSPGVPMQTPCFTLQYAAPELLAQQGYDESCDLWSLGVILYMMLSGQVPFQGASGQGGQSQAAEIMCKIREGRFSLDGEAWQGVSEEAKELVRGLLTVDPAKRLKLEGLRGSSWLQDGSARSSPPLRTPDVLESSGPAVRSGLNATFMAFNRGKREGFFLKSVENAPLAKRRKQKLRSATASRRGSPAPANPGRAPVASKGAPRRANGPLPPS
Sequence of UniProt Q05655 (whole entry, looked up): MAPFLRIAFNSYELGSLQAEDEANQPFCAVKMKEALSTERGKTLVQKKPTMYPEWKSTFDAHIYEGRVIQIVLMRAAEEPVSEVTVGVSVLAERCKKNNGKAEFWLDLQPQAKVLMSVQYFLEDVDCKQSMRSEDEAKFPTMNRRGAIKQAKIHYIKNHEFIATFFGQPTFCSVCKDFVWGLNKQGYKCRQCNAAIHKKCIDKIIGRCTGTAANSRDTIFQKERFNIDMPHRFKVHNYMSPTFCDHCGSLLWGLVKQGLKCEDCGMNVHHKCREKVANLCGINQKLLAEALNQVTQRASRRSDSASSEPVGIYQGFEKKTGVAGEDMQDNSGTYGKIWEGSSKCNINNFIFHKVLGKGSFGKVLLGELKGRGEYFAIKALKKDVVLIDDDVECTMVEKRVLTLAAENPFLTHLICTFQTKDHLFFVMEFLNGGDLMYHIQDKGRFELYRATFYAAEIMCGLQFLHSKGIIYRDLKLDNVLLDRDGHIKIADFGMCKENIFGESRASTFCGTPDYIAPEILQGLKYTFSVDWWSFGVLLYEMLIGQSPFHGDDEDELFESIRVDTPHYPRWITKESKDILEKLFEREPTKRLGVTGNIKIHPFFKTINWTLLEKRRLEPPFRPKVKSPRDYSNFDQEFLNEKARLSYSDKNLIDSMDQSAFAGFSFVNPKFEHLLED
Sequence of UniProt Q9UHD2 (whole entry, looked up): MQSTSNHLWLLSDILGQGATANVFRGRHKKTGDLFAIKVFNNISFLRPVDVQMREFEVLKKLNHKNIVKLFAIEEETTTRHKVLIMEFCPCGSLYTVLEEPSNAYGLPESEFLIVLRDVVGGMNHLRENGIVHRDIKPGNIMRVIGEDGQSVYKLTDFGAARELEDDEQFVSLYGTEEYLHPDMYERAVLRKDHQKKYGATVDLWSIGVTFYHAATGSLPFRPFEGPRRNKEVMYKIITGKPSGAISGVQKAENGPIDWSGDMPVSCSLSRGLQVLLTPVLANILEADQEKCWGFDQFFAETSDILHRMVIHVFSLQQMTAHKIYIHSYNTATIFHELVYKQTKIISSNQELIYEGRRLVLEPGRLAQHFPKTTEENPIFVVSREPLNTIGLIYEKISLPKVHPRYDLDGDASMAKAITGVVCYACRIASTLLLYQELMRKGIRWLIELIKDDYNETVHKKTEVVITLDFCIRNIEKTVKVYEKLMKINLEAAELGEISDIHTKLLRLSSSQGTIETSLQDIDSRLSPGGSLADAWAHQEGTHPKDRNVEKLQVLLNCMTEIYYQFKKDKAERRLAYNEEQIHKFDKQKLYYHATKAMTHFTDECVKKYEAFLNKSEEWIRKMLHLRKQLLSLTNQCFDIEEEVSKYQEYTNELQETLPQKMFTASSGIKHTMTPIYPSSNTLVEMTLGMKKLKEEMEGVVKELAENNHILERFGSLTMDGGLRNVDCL
Sequence of UniProt Q9BVS4 (whole entry, looked up): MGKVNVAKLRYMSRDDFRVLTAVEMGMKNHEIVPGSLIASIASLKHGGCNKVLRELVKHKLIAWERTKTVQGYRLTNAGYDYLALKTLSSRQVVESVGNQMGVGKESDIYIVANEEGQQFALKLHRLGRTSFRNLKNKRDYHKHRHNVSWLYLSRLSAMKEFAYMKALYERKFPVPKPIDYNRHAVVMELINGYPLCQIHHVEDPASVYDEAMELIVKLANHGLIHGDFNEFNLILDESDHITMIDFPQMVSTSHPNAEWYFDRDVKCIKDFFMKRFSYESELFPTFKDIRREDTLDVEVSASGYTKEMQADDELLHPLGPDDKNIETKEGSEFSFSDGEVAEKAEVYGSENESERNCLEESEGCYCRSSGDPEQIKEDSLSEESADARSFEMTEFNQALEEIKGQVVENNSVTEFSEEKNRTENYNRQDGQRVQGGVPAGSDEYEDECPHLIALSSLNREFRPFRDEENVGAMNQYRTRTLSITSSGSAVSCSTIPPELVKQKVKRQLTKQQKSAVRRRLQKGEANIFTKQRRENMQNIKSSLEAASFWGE
Sequence of UniProt Q6XUX3 (whole entry, looked up): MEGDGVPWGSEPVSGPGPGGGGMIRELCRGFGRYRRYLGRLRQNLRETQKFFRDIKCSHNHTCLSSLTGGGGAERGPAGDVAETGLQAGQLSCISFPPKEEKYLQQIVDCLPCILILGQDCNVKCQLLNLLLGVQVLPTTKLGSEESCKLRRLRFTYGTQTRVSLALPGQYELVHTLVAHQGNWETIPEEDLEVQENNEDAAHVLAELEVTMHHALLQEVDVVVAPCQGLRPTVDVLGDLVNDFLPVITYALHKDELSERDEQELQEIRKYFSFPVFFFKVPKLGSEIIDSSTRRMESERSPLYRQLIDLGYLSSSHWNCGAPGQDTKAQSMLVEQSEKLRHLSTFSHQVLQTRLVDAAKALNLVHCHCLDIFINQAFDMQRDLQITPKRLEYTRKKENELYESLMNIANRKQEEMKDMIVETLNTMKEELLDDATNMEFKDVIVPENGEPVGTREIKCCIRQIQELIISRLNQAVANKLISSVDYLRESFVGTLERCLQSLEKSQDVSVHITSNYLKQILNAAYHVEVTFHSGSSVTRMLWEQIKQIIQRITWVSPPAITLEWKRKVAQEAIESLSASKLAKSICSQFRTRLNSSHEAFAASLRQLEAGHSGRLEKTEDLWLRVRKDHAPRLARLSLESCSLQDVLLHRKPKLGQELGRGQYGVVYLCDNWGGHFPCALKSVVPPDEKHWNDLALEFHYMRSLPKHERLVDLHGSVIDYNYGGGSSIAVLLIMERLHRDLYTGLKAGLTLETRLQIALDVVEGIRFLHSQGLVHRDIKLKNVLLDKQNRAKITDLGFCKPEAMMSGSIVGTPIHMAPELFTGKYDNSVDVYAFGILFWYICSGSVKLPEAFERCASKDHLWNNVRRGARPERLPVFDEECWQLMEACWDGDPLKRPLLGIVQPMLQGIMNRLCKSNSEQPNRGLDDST
Sequence of UniProt O95747 (whole entry, looked up): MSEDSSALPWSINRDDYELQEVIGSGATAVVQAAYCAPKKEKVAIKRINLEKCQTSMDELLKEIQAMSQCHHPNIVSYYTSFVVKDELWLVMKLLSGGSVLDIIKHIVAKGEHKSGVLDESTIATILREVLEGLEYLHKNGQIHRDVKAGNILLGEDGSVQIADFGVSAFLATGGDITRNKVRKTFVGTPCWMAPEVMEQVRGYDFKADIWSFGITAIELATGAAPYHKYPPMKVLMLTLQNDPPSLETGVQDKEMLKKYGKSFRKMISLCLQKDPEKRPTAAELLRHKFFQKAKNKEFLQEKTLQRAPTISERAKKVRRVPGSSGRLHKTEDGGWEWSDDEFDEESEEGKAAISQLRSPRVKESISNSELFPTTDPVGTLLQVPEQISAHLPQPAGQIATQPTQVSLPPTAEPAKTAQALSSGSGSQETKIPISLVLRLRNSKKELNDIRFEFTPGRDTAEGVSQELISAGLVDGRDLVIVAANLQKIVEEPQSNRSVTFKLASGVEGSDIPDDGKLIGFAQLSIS
Sequence of UniProt Q16620 (whole entry, looked up): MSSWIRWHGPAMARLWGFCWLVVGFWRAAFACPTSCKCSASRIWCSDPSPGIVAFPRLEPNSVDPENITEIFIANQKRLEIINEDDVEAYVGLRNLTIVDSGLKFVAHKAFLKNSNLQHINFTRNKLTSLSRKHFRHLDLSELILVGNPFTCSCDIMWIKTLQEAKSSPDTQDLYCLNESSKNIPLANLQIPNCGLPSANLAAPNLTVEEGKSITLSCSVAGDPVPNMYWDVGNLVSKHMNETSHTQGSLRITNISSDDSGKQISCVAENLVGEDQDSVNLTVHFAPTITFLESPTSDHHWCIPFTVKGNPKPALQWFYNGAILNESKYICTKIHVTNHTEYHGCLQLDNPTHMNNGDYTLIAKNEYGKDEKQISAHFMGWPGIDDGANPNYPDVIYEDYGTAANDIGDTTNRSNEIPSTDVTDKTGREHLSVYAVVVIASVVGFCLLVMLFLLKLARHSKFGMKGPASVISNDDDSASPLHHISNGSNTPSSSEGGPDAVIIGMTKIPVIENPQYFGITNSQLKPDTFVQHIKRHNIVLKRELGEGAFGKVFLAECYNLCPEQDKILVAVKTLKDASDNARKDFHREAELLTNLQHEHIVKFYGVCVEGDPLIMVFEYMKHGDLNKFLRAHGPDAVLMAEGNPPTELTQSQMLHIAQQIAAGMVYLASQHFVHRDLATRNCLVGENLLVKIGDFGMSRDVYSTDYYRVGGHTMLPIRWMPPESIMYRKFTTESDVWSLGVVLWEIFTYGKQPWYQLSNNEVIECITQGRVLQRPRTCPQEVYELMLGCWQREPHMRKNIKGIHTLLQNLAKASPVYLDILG

Sample 1 — effect on: enzyme activity; mode: inhibitor; concentration: 0.5 µM; relative to: control
Target: Dual specificity tyrosine-phosphorylation-regulated kinase 1A (DYRK1A, Homo sapiens, UniProt Q13627)
Compound	remaining activity [%]
N#CC(C#N)=C(N)/C(C#N)=C/c1ccc(O)cc1	95.9
Oc1ccc(-c2nc(-c3ccncc3)c(-c3ccc(F)cc3)[nH]2)cc1	99.6
C#Cc1cccc(Nc2ncnc3cc(OCCOC)c(OCCOC)cc23)c1	102
CN(C)c1ccc(C=C2C(=O)Nc3ccccc32)cc1	103
O=C(CCCc1ccc(-c2ccccc2F)cc1)Nc1ccc(O)cc1	106
Cc1nc(-c2ccccc2)c(-c2ccncc2)o1	98.4
CCOC(=O)c1c(C)[nH]c(/C=C2\C(=O)Nc3ccccc32)c1C	95.7
O=S(=O)(c1cccc2cnccc12)N1CCCNCC1	99.4
Cn1c2ccccc2c2c3c(c4c5ccccc5n(CCC#N)c4c21)CNC3=O	46.3
COc1ccc(CNC(=O)Nc2ncc([N+](=O)[O-])s2)cc1	95.6
COc1cc2ncnc(Nc3ccc(F)c(Cl)c3)c2cc1OCCCN1CCOCC1	101
O=C(Nc1cccc(Nc2cc(Nc3cccc(C(F)(F)F)c3)ncn2)c1)C1CC1	104
Nc1ncnc2n[nH]c(Nc3ccc(F)cc3)c12	86.4
Nc1[nH]nc2nc3ccccc3nc12	95.1

Sample 2 — mode: inhibitor; concentration: 1 µM
SMILES: CO[C@@H]1[C@H](N(C)C(=O)c2ccccc2)C[C@H]2O[C@]1(C)n1c3ccccc3c3c4c(c5c6ccccc6n2c5c31)C(=O)NC4
target	assay	inhibition [%]
MAPK6 (Homo sapiens, UniProt Q16659)	enzyme activity	0
CDC42BPB (Homo sapiens, UniProt Q9Y5S2)	enzyme activity	4
NTRK2 (Homo sapiens, UniProt Q16620)	enzyme activity	88
KIT (Homo sapiens, UniProt P10721, T670I/V559D)	enzyme activity	98
Ribosomal protein S6 kinase alpha-4, C-terminal kinase domain (RPS6KA4, Homo sapiens, UniProt O75676)	–	9
TBK1 (Homo sapiens, UniProt Q9UHD2)	enzyme activity	98
PRKCD (Homo sapiens, UniProt Q05655)	enzyme activity	94
TAOK2 (Homo sapiens, UniProt Q9UL54)	enzyme activity	27
Myosin-IIIb (MYO3B, Homo sapiens, UniProt Q8WXR4)	enzyme activity	0

Sample 3 — effect on: cell-free assay; technique: competition with immobilised ligand; concentration: 1 µM
Compound: CCCCN(CCCC)C(=O)CN1C[C@@H](c2cc(OC)c3c(c2)OCO3)[C@H](C(=O)O)[C@H]1CC(C)(C)CCC
target	remaining binding
FLT3 (Homo sapiens, UniProt P36888, K663Q)	80.1%
RIOK2 (Homo sapiens, UniProt Q9BVS4)	83.2%
OXSR1 (Homo sapiens, UniProt O95747)	94%
MAP4K1 (Homo sapiens, UniProt Q92918)	99.6%
STK38L (Homo sapiens, UniProt Q9Y2H1)	92.4%
DSTYK (Homo sapiens, UniProt Q6XUX3)	99.7%
MAP3K12 (Homo sapiens, UniProt Q12852)	89.9%
Ribosomal protein S6 kinase alpha-3, C-terminal kinase domain (RPS6KA3, Homo sapiens, UniProt P51812)	85.4%
Tyrosine-protein kinase JAK3, JH1 (JAK3, Homo sapiens, UniProt P52333)	93.6%
FLT3 (Homo sapiens, UniProt P36888, D835V/ITD)	97.4%

Sample 4 — cell line: mouse MPNST tumor cells; technique: high-content immunofluorescence imaging; item: nuclear SOX9; concentration: 10 µM; time: 12 h; notes: mean of 2 replicates; relative to: DMSO control; reading: higher = more nuclear SOX9
SMILES	nuclear SOX9 intensity
C[C@@H]1CN(c2cc(-c3n[nH]c4ccc(OC5(C)CC5)cc34)ncn2)C[C@H](C)O1	128 % of DMSO
C1N2CN3CN1CN(C2)C3	97.4 % of DMSO
Nc1nc(=O)[nH]cc1F	96.5 % of DMSO
COc1ccc(-c2ccc(OCc3cc(C(=O)NS(=O)(=O)c4ccccc4C)oc3C)cc2)nc1	102 % of DMSO
CNc1cc2[nH]c(=O)n(-c3ccc(NC(=O)NS(=O)(=O)c4ccc(Cl)s4)cc3)c(=O)c2cc1F	97.4 % of DMSO

Some of these lines once more (sample 3):
target	remaining binding
OXSR1 (Homo sapiens, UniProt O95747)	94%
Ribosomal protein S6 kinase alpha-3, C-terminal kinase domain (RPS6KA3, Homo sapiens, UniProt P51812)	85.4%
FLT3 (Homo sapiens, UniProt P36888, D835V/ITD)	97.4%
STK38L (Homo sapiens, UniProt Q9Y2H1)	92.4%
